Published values of several laboratories.
“And” joins repeats or separate records; there may be more than shown.
Sequence of UniProt Q01959 (whole entry, looked up): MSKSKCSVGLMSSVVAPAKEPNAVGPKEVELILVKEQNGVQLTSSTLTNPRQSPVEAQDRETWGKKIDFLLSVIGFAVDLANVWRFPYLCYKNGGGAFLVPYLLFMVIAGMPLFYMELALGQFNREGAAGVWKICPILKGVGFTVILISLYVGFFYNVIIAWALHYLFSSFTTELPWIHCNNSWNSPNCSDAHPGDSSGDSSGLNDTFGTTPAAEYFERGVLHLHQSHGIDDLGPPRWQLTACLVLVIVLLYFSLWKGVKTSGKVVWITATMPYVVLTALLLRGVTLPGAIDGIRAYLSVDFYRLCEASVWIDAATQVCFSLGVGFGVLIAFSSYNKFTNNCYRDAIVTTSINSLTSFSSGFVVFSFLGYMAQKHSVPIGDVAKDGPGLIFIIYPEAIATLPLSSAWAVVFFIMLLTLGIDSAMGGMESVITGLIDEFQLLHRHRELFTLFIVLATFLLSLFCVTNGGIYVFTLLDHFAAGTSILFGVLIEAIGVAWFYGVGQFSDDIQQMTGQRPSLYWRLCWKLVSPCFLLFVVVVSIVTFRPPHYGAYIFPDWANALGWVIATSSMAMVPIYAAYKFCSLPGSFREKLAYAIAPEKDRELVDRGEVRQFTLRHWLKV
Sequence of UniProt P61075 (whole entry, looked up): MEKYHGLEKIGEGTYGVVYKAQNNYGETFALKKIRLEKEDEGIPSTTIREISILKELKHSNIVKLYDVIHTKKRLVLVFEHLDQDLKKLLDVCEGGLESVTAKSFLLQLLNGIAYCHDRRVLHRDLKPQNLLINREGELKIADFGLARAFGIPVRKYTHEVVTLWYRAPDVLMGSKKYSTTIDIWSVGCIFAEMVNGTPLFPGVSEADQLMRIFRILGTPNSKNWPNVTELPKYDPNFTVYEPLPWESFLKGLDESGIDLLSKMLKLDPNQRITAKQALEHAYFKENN
Sequence of UniProt P41143 (whole entry, looked up): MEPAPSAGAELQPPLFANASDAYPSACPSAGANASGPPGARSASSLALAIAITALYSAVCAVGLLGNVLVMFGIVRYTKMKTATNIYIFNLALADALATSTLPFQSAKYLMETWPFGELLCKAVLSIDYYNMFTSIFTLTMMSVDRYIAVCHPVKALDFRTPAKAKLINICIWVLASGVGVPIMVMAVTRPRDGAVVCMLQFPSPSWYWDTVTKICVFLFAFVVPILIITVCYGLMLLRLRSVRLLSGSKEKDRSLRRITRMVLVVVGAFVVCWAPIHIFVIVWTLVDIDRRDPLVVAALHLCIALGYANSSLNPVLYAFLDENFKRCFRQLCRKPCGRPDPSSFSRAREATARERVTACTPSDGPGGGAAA
Sequence of UniProt P62344 (whole entry, looked up): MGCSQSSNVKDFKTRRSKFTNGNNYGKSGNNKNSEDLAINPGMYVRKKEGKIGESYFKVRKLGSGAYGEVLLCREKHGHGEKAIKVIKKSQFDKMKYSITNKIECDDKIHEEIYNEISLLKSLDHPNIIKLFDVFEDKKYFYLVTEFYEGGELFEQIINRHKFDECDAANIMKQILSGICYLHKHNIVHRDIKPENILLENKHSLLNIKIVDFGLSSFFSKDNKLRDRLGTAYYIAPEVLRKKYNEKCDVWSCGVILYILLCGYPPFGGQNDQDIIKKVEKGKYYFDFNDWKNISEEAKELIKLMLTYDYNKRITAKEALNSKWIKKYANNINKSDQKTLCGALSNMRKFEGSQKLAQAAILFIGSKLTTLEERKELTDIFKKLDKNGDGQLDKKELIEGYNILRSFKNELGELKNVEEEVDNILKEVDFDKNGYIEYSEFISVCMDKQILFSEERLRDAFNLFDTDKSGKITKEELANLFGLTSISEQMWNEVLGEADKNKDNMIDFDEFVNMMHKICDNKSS

Structure (SMILES) | tested on | assay | setting | how to read | measurement | result
Cn1nc(C(F)(F)F)cc1-c1cnc(N2CCc3cc(S(=O)(=O)Nc4c(F)cc(Cl)cc4F)cc(N4CCCC4=O)c32)nc1 | CRK2 (Plasmodium falciparum, UniProt P61075) | cell-free assay, competition with immobilised ligand | 1 µM |  | remaining binding | 73%
CC(C)S(=O)(=O)c1cc2c(Nc3ccc4sc(C5CCCC5)nc4c3)ccnc2cc1OCCO | L929 RIPK3-/- reexpressing RIPK3 K51A | CCK-8 | 1.563 µM |  | survival | 93.1% and 101% and 91.7%
CNCc1ccccc1-c1csc([C@@H](C)Nc2nc(C)nc3cc(OC)c(OC)cc23)c1 | SLC6A3 (Homo sapiens, UniProt Q01959) | binding, radioligand binding | 10 µM |  | inhibition | 77.2%
Cc1ccc(/N=C/N(C)/C=N/c2ccc(C)cc2C)c(C)c1 | A-375 |  | 100 µM, 18 h |  | viability | 45.3%
O=C(N[C@H]1CCCCC/C=C\C2C[C@@]2(C(=O)O)NC(=O)[C@@H]2C[C@@H](Oc3ccncc3)CN2C1=O)OC1CCCC1 (some centres unmarked) | CDPK1 (Plasmodium falciparum, UniProt P62344) | cell-free assay, competition with immobilised ligand | 1 µM |  | remaining binding | 73%
CCC1(c2ccc(N)cc2)CCC(=O)NC1=O (centres unmarked) | mouse MPNST tumor cells | high-content immunofluorescence imaging, item: nuclear SOX9 | 10 µM, 12 h, mean of 2 replicates | relative to: DMSO control, higher = more nuclear SOX9 | nuclear SOX9 intensity | 95.1 % of DMSO
COc1ccc2c(c1)O[C@@H](c1ccc(OC)c(OC)c1)C[C@H]2NC(=O)C1(c2ccc3c(c2)OC(F)(F)O3)CC1 | OPRD1 (Homo sapiens, UniProt P41143) | binding, radioligand binding | 10 µM |  | inhibition | -9.84%
C[N+]12CCC(CC1)C(OC(=O)C(O)(c1ccccc1)c1ccccc1)C2 (centres unmarked) | A-375 |  | 100 µM, 18 h |  | viability | 97.2%

Some of these lines once more:
Structure (SMILES) | tested on | assay | setting | how to read | measurement | result
COc1ccc2c(c1)O[C@@H](c1ccc(OC)c(OC)c1)C[C@H]2NC(=O)C1(c2ccc3c(c2)OC(F)(F)O3)CC1 | OPRD1 (Homo sapiens, UniProt P41143) | binding, radioligand binding | 10 µM |  | inhibition | -9.84%
